Measured values of several laboratories.
Each numbered part is a random draw from the data of one study; scales do not carry over between parts.

Series 1 — technique: protein-binding microarray; molecule type: double-stranded DNA, one strand shown; sample: in vitro; tested at: 2540 nM top; notes: 60-bp whole probe; together with: salmon DNA 0.4 mg/ml; baseline: random background probes; direction: higher = stronger binding; quantity: fitted relative affinity; shared flanks, not repeated: GCCTAGCAC … GTCTTGATTCGCTTGACGCTGCTG
Target: Interferon regulatory factor 3, full length, phosphomimetic (IRF3, Homo sapiens, UniProt Q14653, residues 1-427, S386D/S396D/S398D/S402D/T404D/S405D)
UniProt Q14653, sequence (whole entry, unmodified, looked up): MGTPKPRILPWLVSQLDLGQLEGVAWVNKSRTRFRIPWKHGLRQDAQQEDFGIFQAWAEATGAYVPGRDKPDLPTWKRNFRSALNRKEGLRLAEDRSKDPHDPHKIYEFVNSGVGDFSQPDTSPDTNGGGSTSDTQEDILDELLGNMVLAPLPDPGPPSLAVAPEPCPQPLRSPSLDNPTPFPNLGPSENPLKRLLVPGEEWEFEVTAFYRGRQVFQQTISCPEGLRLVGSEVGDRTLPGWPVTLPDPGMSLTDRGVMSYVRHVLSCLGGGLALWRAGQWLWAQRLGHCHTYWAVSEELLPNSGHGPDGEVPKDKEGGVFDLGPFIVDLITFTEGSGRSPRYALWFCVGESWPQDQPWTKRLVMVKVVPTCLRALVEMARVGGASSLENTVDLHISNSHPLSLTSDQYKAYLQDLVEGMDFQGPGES
Oligonucleotide = TCAAACTTAGTTTTCAAACTGTGCTAG; result = 2.16 z-score
Oligonucleotide = GGTCCTTTCTGCCTCAGAGGGTGCTAG; result = 6.15 z-score
Oligonucleotide = TTAGGTCTCGGACTTGGTTAGTGCTAG; result = 0.0265 z-score
Oligonucleotide = TGCATCGTAAGCAAAAATGAGTGCTAG; result = -0.113 z-score
Oligonucleotide = GACGAACTGGAGACTGGAGACGTGCTA; result = -0.292 z-score
Oligonucleotide = GACGATGTCAGTTTCGAGACGTGCTAG; result = 2.32 z-score

Series 2 — technique: universal PBM; molecule type: double-stranded DNA, one strand shown; sample: in vitro; tested at: not given; direction: higher = stronger binding; quantity: E-score
Target: Sal-like protein 4, full length isoform B (SALL4, Homo sapiens, UniProt Q9UJQ4-2, residues 1-616)
Notes: 8-mer, flanks averaged, mean of replicates
Residues (chain): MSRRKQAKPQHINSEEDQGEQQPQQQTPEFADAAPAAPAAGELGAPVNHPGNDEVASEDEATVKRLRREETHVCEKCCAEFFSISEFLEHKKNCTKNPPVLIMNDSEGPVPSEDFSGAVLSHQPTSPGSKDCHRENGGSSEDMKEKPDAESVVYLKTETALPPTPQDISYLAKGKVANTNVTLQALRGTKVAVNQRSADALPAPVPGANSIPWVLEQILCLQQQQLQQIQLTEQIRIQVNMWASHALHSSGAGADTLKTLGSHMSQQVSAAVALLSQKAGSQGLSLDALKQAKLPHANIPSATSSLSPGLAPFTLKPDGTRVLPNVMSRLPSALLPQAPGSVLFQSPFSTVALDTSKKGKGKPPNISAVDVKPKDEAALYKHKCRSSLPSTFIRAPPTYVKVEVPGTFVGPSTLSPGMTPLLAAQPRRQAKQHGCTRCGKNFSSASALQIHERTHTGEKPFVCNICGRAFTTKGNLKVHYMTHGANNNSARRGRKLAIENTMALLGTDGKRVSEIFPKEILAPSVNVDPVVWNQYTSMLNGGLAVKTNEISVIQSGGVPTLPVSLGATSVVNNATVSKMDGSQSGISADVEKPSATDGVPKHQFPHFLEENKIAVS
Oligonucleotide = ATAGAGAA; result = 0.215
Oligonucleotide = CCACTGCC; result = -0.273
Oligonucleotide = AGCGTAGC; result = -0.114
Oligonucleotide = TCTGGACA; result = -0.142
Oligonucleotide = ACAAGTCC; result = -0.0226
Oligonucleotide = AAGCTGTG; result = -0.11

Series 3 — technique: RNA Bind-n-Seq; molecule type: RNA; sample: in vitro; tested at: 365 nM; baseline: no-protein control; direction: higher = stronger binding; quantity: RBNS enrichment (R)
Target: RNA binding protein fox-1 homolog 2, RRM domain, GST-SBP tag (RBFOX2, Homo sapiens, UniProt O43251-10, residues 100-194)
Notes: natural RNA segment, single round, ends assumed
Target sequence (chain): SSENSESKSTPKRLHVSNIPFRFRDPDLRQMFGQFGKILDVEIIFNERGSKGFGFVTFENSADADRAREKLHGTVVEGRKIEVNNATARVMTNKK
Oligonucleotide = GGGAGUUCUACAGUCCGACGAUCUGAGCCGCCACACCCGGCCAUCACACCUGGAUUUUCAGUGGGAGGUUUUUGGUUUGGAGACAUCCAAAGCCUGAAGCCAGGUGGGUGUGGGCAGGGGCUGCAUUUUAUGAUGGAAUUCUCGGGUGCCAA; result = 0.653
Oligonucleotide = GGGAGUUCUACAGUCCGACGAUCGCACUGCUUUUGUAUGUGAUCUUGCAACAAACUCAGAAAUGGCUCCUUCCCAGCCCUACUGAAAAGCUUGUUUCUGGGGCCUCCUUCACGGAUUCAUAUGGUACCUUCCUUGGAAUUCUCGGGUGCCAA; result = 4.1
Oligonucleotide = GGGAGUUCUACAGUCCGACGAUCUCAGACAAGGAAUUUAGGAAGCAAAAGUUGACCAAGGGUGCAUUGGGUUCGCCUCCCCGAGGCUCCGUUUCCAAGCGAUUCAACGUUAACUACCUUUUUCUGUAUGCUUUUGGAAUUCUCGGGUGCCAA; result = 0.456
Oligonucleotide = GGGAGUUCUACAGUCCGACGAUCCUGGCAAGACUCAGGGUCCUCAGUGGACAUGGUGUGGGUGACAUCAGAAGGGUGCCACAUCAGUCCCCUCCCCAACCUCAGUGACUGACAGAGGAUCCGGAUCUCAGAGCUGGAAUUCUCGGGUGCCAA; result = 0.324
Oligonucleotide = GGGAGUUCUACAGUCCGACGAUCUCAGCCAAAGCAAAAGAUGGCUGCUGCUUUGUAGGCAUGUGCCUGCAAGUGGGACCUUGCUGGGCAUUAUAUGCCCUGUGGGGGUUUCAGAGACCCUGAAAGAGGAGGGAUGGAAUUCUCGGGUGCCAA; result = 0.287

Mixed results
Substance = PhoQ, residues 284 288 289 292 302 303 SLSLLA; target = PhoP, residues 12 14 15 18 19 SQCLL (Escherichia coli, UniProt P23836); assay = Sort-seq, measured: YFP reporter; system = E. coli; setting = PhoQ-PhoP variant library, together with: 10 µM Mg2+; how to read = baseline: high Mg2+ state, higher = stronger signaling; quantity = fold induction; result = 1.65

Some of these lines once more (series 1):
Oligonucleotide = GGTCCTTTCTGCCTCAGAGGGTGCTAG; result = 6.15 z-score
